# Published values collected from several papers.
# Every numbered part comes from another study and shows a few of its results, in no order.

# Sample 1
# Target: Prothrombin, mature alpha-thrombin (F2, Homo sapiens, UniProt P00734)
# Technique: aptamer microarray, sandwich
# Molecule type: DNA with 2'F-ANA
# Matrix: in vitro
# Tested at: 200 nM
# Setting: whole 15-mer aptamer, many near background
# With: Cy3 exosite-II aptamer, 400 nM
# Direction: higher = stronger binding
Oligonucleotide,mean fluorescence intensity [a.u.]
GGTTGGTGTGGTTGG (2'F-ANA at 1 3 4 6 7 9 12 13 14),65.4
GGTTGGTGTGGTTGG (2'F-ANA at 3 6 7 14 15),533
GGTTGGTGTGGTTGG (2'F-ANA at 2 3 7 10 12 14 15),331
GGTTGGTGTGGTTGG (2'F-ANA at 1 2 3 7 9 10 11 14 15),261

# Sample 2
# Target: RNA binding protein fox-1 homolog 2, RRM domain, GST-SBP tag (RBFOX2, Homo sapiens, UniProt O43251-10, residues 100-194)
# Technique: RNA Bind-n-Seq
# Molecule type: RNA
# Matrix: in vitro
# Tested at: 365 nM
# Setting: natural RNA segment, single round, ends assumed
# Baseline: no-protein control
# Direction: higher = stronger binding
# Residues (chain): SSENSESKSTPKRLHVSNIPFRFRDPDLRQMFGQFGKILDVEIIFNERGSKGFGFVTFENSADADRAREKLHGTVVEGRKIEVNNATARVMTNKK
Oligonucleotide,RBNS enrichment (R)
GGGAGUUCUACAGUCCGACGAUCAUUUUACUCUGAAUUUGUUUAUUAAAAGACUUUUGAACAUGAAAUGAUUAGUAUUACUUGAAUGCAUCCAGAGGAUAUUUAAACCAAAAUGAAAAACCAGAAGGCCAUUUUGGAAUUCUCGGGUGCCAA,0.899
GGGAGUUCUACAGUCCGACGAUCAGCAAUUUUGGGGAAGGGUUUGAAUUGUUUUCUUUAAAGAUGUAAUGUCCCUUUCAGAGACAGCUGAUACUUCAUUUAAAAAAAUCACAAAAAUUUGAACACUGGCUAAAUGGAAUUCUCGGGUGCCAA,0.381
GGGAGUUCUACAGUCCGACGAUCGAUGCUCCUUCCCUGAAUAUGCAGUAGAGCUGUGCCACAUGCCCUUUGAAGAUCUUCAUGGCUGCUGUGAGACCCUGCUUUGGCAGCACCGAGUCACCUGGUGAGCCUCAUGGAAUUCUCGGGUGCCAA,0.585
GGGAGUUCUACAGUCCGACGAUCUGAAUCUAAAGUAAUUUGCUAACUAUUUUGAUUCUUCAGAGAACUACUAAUAAAAAUCUAAAAGGUAUGCCAUGCUGCCUUAACCUCUUUAUUUUGAAAAAUGGUUUGACUGGAAUUCUCGGGUGCCAA,0.393
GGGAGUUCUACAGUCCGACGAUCAAGUCUGAUCUCCGCAGGAAACUCUUGUGAAGUAACUGGUGCCUGAGGUGCACUCAAGUGUGGGACUGAGCUUGGCUUCUGGCUCAGUUUCCAUUUUUUGGUCUGAAACUUGGAAUUCUCGGGUGCCAA,0.392
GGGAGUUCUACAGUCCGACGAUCGUGAAUGGGAAUUAGCAAUGCACGCUUGCAGGCUCUUUUUCCAGGAACCAGGCUGUAACAUUGACCGGGGAACCUCUUCAUUCCCUGACAUACUAAAUUGGUCAAUUUUGUGGAAUUCUCGGGUGCCAA,0.491
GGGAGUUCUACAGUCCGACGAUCCCCAUAGUUGGUUAUUUUUUAUUUGGGGCAGUGGGUGCAUACGGGGAGGGGAGGGUGUUCUUCCCAACCUAGGGUCCCAGCUGUCUUCACCUGUUCUUACCCACGUCCCUUGGAAUUCUCGGGUGCCAA,0.302

# Sample 3
# Target: Histone acetyltransferase KAT6A, winged helix 2, GST fusion (KAT6A, Homo sapiens, UniProt Q92794, residues 85-181)
# Technique: protein binding microarray
# Molecule type: double-stranded DNA, one strand shown
# Matrix: in vitro
# Tested at: not given
# Setting: 8-mer, flanks averaged, mean of 2 arrays, mostly near background
# Baseline: not given
# Direction: higher = stronger binding
# Target sequence (chain): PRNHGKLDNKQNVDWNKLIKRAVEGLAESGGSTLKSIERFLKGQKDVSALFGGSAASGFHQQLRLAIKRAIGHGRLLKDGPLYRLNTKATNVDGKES
Oligonucleotide,E-score
CGCAAAAA,0.149
CCTTCTAA,-0.0695
ATGTGTGA,-0.152
CCTGTTCA,0.0192
ATAGGCGA,0.0515
TACCTTAA,-0.201

# Other studies, line by line
Molecule,target,assay,system,setting,how to read,measurement,value
"PhoQ, residues 284 288 289 292 302 303 AAQSYM","PhoP, residues 12 14 15 18 19 IFFTR (Escherichia coli, UniProt P23836)","Sort-seq, refers to: YFP reporter",E. coli,"PhoQ-PhoP variant library, with: 10 µM Mg2+","baseline: high Mg2+ state, higher = stronger signaling",fold induction,4.01

# Excerpt of the above (sample 2):
Oligonucleotide,RBNS enrichment (R)
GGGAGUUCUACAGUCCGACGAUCGAUGCUCCUUCCCUGAAUAUGCAGUAGAGCUGUGCCACAUGCCCUUUGAAGAUCUUCAUGGCUGCUGUGAGACCCUGCUUUGGCAGCACCGAGUCACCUGGUGAGCCUCAUGGAAUUCUCGGGUGCCAA,0.585
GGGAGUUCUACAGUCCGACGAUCAUUUUACUCUGAAUUUGUUUAUUAAAAGACUUUUGAACAUGAAAUGAUUAGUAUUACUUGAAUGCAUCCAGAGGAUAUUUAAACCAAAAUGAAAAACCAGAAGGCCAUUUUGGAAUUCUCGGGUGCCAA,0.899
